Published values of several laboratories.
Each line is one published result; not all experiments were run side by side. ± marks the error that the study gave.
N-terminal Xaa-Pro-Lys N-methyltransferase 1: N-terminal Xaa-Pro-Lys N-methyltransferase 1 (Homo sapiens, UniProt Q9BV86)
Chain of UniProt Q9BV86 (whole entry, looked up): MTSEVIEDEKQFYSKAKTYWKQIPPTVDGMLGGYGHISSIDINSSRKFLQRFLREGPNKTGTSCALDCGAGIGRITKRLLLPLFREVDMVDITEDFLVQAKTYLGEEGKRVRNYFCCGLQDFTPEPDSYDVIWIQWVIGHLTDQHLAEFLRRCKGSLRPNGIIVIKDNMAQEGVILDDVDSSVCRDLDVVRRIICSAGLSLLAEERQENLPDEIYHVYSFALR
HSD17B1: 17-beta-hydroxysteroid dehydrogenase type 1 (HSD17B1, Homo sapiens, UniProt P14061)
Chain of UniProt P14061 (whole entry, looked up): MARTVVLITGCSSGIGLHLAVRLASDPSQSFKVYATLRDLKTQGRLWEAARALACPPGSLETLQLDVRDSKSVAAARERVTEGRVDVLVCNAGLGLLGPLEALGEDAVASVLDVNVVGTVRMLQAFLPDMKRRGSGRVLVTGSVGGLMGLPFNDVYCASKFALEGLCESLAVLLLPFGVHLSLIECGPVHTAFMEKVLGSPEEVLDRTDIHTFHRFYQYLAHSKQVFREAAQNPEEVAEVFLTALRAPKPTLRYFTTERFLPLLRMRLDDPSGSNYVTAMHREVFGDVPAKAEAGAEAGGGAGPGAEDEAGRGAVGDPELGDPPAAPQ
SLC7A5: Large neutral amino acids transporter small subunit 1 (SLC7A5, Homo sapiens, UniProt Q01650)
Chain of UniProt Q01650 (whole entry, looked up): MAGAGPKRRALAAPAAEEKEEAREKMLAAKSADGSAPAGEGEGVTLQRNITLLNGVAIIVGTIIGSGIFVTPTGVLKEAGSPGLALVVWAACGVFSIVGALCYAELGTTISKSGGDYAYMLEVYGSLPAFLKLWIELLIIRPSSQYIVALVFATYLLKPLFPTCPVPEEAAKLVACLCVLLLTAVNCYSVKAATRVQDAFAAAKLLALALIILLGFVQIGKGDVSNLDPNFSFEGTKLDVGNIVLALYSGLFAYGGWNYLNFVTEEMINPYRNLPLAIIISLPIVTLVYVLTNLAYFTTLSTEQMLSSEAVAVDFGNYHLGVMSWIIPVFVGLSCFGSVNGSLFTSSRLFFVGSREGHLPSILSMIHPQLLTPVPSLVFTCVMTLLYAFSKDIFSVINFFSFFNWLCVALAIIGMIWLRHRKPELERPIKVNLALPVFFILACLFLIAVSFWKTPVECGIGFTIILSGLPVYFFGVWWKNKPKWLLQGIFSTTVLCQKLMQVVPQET
Proteasome subunit beta type-3/PSMB7: Proteasome subunit beta type-3/PSMB7 (Homo sapiens, UniProt P49720+Q99436)
Chain of UniProt Q99436 (whole entry, looked up): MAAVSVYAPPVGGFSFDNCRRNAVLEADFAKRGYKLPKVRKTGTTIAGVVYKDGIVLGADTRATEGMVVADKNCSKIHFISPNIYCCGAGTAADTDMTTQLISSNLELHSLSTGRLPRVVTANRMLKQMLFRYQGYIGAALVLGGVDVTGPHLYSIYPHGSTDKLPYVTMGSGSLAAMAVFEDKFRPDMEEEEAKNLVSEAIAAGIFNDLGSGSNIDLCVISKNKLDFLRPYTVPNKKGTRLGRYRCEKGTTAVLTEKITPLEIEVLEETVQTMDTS
Chain of UniProt P49720 (whole entry, looked up): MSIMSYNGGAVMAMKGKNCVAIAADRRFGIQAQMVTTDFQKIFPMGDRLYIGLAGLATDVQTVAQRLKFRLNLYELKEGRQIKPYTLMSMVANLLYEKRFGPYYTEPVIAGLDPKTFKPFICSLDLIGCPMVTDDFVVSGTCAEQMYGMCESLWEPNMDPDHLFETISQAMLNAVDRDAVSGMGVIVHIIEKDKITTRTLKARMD
MAPK9: Mitogen-activated protein kinase 9 (MAPK9, Homo sapiens, UniProt P45984)
Chain of UniProt P24385 (whole entry, looked up): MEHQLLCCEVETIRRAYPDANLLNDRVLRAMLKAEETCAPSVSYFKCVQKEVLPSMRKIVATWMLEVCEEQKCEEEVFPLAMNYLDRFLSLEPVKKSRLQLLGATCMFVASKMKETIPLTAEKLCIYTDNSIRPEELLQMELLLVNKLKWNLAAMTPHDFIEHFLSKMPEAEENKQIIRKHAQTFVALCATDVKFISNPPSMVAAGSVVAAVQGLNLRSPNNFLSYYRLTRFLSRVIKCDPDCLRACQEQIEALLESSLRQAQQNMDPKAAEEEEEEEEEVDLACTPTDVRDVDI
Chain of UniProt P45984 (whole entry, looked up): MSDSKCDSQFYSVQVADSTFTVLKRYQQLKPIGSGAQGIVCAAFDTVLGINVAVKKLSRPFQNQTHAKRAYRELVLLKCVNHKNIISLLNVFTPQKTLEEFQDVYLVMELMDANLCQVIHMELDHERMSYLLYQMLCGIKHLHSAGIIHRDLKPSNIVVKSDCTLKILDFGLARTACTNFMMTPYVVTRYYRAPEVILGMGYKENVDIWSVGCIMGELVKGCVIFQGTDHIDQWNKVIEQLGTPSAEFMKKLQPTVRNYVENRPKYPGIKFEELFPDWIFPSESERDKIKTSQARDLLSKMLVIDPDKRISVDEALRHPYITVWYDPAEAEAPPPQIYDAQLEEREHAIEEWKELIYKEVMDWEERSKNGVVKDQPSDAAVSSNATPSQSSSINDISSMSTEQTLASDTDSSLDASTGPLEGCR
Chain of UniProt Q9Y468 (whole entry, looked up): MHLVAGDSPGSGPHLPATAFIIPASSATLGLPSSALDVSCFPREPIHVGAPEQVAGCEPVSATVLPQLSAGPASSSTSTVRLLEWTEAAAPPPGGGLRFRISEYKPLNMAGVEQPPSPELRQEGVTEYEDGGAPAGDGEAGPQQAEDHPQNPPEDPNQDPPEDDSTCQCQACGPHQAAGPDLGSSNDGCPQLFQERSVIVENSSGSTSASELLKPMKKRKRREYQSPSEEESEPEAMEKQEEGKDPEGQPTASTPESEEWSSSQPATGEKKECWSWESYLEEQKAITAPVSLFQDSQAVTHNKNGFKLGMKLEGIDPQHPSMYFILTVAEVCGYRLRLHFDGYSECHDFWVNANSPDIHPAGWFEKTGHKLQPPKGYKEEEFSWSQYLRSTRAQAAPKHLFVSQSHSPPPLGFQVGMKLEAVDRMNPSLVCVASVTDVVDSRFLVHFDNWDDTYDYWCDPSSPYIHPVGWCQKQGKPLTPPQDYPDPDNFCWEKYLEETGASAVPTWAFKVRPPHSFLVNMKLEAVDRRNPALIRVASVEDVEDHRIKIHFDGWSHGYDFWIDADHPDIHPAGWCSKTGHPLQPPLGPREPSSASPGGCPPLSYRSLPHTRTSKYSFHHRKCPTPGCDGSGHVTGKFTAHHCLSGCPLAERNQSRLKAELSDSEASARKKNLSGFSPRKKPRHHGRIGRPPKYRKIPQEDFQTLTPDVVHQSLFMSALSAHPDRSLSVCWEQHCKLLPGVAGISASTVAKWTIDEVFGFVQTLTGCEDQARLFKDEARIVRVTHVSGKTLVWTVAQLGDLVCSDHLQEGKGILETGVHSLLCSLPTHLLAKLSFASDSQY
Chain of UniProt Q007T0 (whole entry, looked up): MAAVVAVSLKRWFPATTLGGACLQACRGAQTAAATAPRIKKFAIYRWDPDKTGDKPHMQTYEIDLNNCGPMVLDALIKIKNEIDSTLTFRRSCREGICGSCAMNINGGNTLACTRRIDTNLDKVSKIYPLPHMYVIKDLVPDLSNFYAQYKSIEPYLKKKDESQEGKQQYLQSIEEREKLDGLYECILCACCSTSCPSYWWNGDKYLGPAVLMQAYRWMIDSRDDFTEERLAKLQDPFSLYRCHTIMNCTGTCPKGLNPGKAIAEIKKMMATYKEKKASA
Chain of UniProt P47713 (whole entry, looked up): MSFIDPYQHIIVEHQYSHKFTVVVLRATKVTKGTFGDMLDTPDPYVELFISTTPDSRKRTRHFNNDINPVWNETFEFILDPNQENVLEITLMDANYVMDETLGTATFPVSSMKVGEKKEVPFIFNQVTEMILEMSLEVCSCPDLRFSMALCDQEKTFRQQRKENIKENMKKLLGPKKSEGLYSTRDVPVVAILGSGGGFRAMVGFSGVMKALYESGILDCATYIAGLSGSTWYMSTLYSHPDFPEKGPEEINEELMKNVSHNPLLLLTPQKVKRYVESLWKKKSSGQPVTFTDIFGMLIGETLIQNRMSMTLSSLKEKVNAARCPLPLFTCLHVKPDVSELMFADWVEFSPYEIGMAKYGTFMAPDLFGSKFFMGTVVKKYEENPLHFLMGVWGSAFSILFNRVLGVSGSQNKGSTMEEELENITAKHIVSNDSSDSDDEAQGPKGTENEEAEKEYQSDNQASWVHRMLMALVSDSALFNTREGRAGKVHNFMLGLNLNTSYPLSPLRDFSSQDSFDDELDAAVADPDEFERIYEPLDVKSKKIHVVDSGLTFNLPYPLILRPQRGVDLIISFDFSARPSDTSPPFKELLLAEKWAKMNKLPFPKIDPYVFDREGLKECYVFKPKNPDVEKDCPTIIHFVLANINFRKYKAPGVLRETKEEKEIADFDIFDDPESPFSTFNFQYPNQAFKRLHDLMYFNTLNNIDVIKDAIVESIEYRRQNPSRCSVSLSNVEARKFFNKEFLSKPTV
Chain of UniProt Q9UKF6 (whole entry, looked up): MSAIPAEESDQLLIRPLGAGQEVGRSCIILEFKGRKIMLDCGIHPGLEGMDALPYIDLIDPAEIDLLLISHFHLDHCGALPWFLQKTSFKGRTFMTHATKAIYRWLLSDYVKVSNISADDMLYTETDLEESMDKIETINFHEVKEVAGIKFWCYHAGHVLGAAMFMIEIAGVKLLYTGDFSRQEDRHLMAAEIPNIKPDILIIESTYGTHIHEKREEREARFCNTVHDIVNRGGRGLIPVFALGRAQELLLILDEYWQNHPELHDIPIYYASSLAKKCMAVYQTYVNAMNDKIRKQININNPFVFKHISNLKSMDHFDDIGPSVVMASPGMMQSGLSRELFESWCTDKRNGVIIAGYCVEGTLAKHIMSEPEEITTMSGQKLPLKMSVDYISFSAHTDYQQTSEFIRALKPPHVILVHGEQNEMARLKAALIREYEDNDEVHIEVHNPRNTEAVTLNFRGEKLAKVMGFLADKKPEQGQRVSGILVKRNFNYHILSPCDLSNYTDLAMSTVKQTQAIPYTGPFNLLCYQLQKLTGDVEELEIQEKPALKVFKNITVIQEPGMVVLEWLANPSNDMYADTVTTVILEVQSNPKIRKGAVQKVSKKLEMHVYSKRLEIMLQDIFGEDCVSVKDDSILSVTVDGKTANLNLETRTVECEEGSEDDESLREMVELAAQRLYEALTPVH

| SMILES | target | assay | system | setting | IC50 [µM] |
| --- | --- | --- | --- | --- | --- |
| COc1cc(F)cc(-c2nc3ccc(C(=O)NCCCN(C)C)cc3n2C2CCC2)c1 | ACVRL1 (Homo sapiens, UniProt P37023) | target engagement in cells, BRET | – | – | > 30 |
| N=C(N)NCCCC(N)C(=O)NCC(=O)NC(CCCCNC(=N)NCCCSCC1OC(n2cnc3c(N)ncnc32)C(O)C1O)C(N)=O (stereo not drawn) | N-terminal Xaa-Pro-Lys N-methyltransferase 1 | enzyme activity, inhibitor, fluorescence | – | – | > 100 |
| COc1ccc(C(=O)/C=C/c2ccc(O)cc2)c(O)c1CC=C(C)C | Maob (Rattus norvegicus, UniProt P19643) | inhibitor | – | – | 3.43 |
| O=C(c1cc2ccc(Cl)cc2s1)N(c1ccc(OCCN2CCCC2)cc1)c1ccc(OCCN2CCCC2)cc1 | AGER (Homo sapiens, UniProt Q15109) | AGE2-BSA binding, inhibitor, competitive ELISA | – | together with: AGE2-BSA | 13.2 |
| Nc1ccc(/N=N/c2ccc(S(N)(=O)=O)cc2)c2ccccc12 | GLO1 (Homo sapiens, UniProt Q04760) | enzyme activity, inhibitor | – | – | 1.85 |
| C[C@]12CC[C@@H]3c4ccc(OCc5ccccc5)cc4CC[C@H]3[C@@H]1[C@H](OCCCO)CC2=O | HSD17B1 | enzyme activity, inhibitor, radiometric | – | – | 0.78 to 1.5 |
| CC(C)S(=O)(=O)c1ccc(S(=O)(=O)C(C)C)c(O)c(=O)c1O | Ribonuclease HI (rnhA, Escherichia coli, UniProt P0A7Y4) | enzyme activity, inhibitor | – | – | 90 |
| CN1CCN(c2cccc(NC(=O)CCc3cccc4c3B(O)OC4)c2)CC1 | CPSF3 (Homo sapiens, UniProt Q9UKF6) | ligand displacement, FP | – | – | 0.24 |
| Cc1ccc2oc(-c3c4c(N)n[nH]c(=O)c4nn3-c3ccc(NC(=O)/C=C/CN(C)C)cc3)c(C)c2c1 | MAPK3 (Homo sapiens, UniProt P27361) | enzyme activity, inhibitor, FRET | – | – | > 1 |
| N=C(N)NCCC[C@@H]1NC(=O)[C@H](Cc2c[nH]c3ccccc23)NC(=O)[C@H](CCCNC(=N)N)NC(=O)[C@H](Cc2c[nH]c3ccccc23)NC(=O)[C@H](CCCNC(=N)N)NC(=O)[C@H](Cc2c[nH]c3ccccc23)NC(=O)[C@H](CCCNC(=N)N)NC(=O)[C@H](Cc2c[nH]c3ccccc23)NC(=O)[C@H](CCCNC(=N)N)NC(=O)[C@H](Cc2c[nH]c3ccccc23)NC(=O)[C@H](CCCNC(=N)N)NC(=O)[C@H](Cc2c[nH]c3ccccc23)NC(=O)[C@H](CCCNC(=N)N)NC(=O)[C@H](Cc2c[nH]c3ccccc23)NC(=O)[C@H](CCCNC(=N)N)NC(=O)[C@H](Cc2c[nH]c3ccccc23)NC1=O | BTK (Homo sapiens, UniProt Q06187) | enzyme activity, inhibitor | – | – | < 0.25 |
| CC(C)NCc1ccc(C[C@@H]2NC(=O)[C@@H](Cc3c[nH]c4ccccc34)NC(=O)[C@@H]3CCC(=O)NCCCCCC[C@H](NC(=O)[C@H](Cc4ccc(O)c(I)c4)NC(=O)[C@H]([C@@H](C)O)NC2=O)C(=O)N[C@@H](CO)C(=O)N[C@H](C(=O)O)CSSC[C@H](N)C(=O)N[C@@H](CCCCN)C(=O)N[C@@H](Cc2ccccc2)C(=O)N3)cc1 | SSTR2 (Homo sapiens, UniProt P30874) | ligand displacement, radioligand | – | cell membranes | > 1 |
| O=C(O[C@@H]1Cc2c(O)cc(O)cc2O[C@@H]1c1ccc(O)cc1)c1cc(O)c(O)c(O)c1 | maltase, rat | enzyme activity, inhibitor | rat intestinal brush border vesicles | – | 63.1 |
| C=CCc1ccc(OCc2nnc(SCC(=O)Nc3ccc(F)cc3F)o2)c(OC)c1 | TYMS (Homo sapiens, UniProt P04818) | enzyme activity, inhibitor | – | – | 1.01 |
| C=C(NC(=O)C(=C)NC(=O)c1csc(C2=NC3c4csc(n4)C4NC(=O)c5csc(n5)C(C(C)(O)C(C)O)NC(=O)C5CSC(=N5)C(=CC)NC(=O)C(C(C)O)NC(=O)c5csc(n5)C3(CC2)NC(=O)C(Cc2ccccc2)NC(=O)C(=C)NC(=O)C(C)NC(=O)C(C(C)CC)NC2C=Cc3c(C(C)O)cc(nc3C2O)C(=O)OC4C)n1)C(N)=O (stereo not drawn) | PSMB5 (Homo sapiens, UniProt P28074) | chymotrypsin-like activity, inhibitor | purified 20S proteasome | 15 min preincubation, 37 °C, together with: Suc-Leu-Leu-Val-Tyr-AMC substrate | 0.37 ± 0.09 |
| N[C@@H](Cc1c[nH]c2ccc(OCc3ccccc3-c3ccco3)cc12)C(=O)O | SLC7A5 | transporter uptake, inhibitor, radiometric | – | – | 32 |
| O=c1[nH]c(=O)c2ncn(CCOCP(=O)(O)OP(=O)(O)OP(=O)(O)O)c2[nH]1 | POLA1 (Homo sapiens, UniProt P09884) | DNA polymerase activity, inhibitor | – | together with: [3H]dTTP, calf thymus DNA | > 100 |
| CC(C)(C)NCCCNC(=O)c1ccnc(C(F)(F)F)c1 | Lethal(3)malignant brain tumor-like protein 1 (Homo sapiens, UniProt Q9Y468) | methyl-lysine reader binding, inhibitor, AlphaScreen | – | – | > 100 |
| O=C(O)C(CO)NCc1cc(Cl)c(OCc2cccc(-c3ccccc3)c2Br)cc1OCc1cccnc1 (stereo not drawn) | CD28/CD80 (Homo sapiens, UniProt P10747+P33681) | PD-1/PD-L1 interaction, inhibitor, ELISA | – | – | > 10 |
| C=CC(=O)Nc1cc(Nc2nccc(-c3cn(C)c4ccccc34)n2)c(OCC(F)(F)F)nc1N(C)CCN(C)C | Cytochrome P450 2C8 (CYP2C8, Homo sapiens, UniProt P10632) | enzyme activity, inhibitor | human, liver microsomes | – | > 100 |
| O=C(Nc1ccccc1Nc1ccccc1)c1cccnc1Br | Succinate dehydrogenase complex (Sus scrofa, UniProt A5GZW8+D0VWV4+Q007T0+Q0QF01) | enzyme activity, inhibitor, double-antibody sandwich ELISA | – | – | 30 |

| SMILES | target | assay | system | setting | IC50 [µM] |
| --- | --- | --- | --- | --- | --- |
| O=C(N[C@@H](Cc1coc2ccccc12)B(O)O)[C@@H]1C[C@H]2CC[C@@H]1O2 | Proteasome subunit beta type-3/PSMB7 | β2 enzyme activity, inhibitor | human constitutive proteasome | 2 h preincubation, together with: Ac-RLR-AMC | > 30 |
| OC[C@H]1[C@@H](O)[C@@H](O)CN1Cc1ccc(I)cc1 | Golgi alpha-mannosidase IIb (Drosophila melanogaster, UniProt Q9VF33) | inhibitor | – | together with: p-nitrophenyl mannoside | 52 |
| CCOc1ccc(S(=O)(=O)Nc2ccc(NS(=O)(=O)c3ccc(OCC)cc3)c3ccccc23)cc1 | Kelch-like ECH-associated protein 1, Kelch domain (KEAP1, Homo sapiens, UniProt Q14145) | Keap1-Nrf2 interaction, inhibitor, fluorescence polarization | – | – | 3.57 ± 0.34 |
| Cc1ccc(NC(=O)Nc2cnn(-c3cccc(C(=O)Nc4ccnc(C)c4)c3)c2)cc1 | MAPK9 | enzyme activity, inhibitor | – | – | 0.836 |
| CC(C)C[C@@H](NC(=O)[C@@H](Cc1ccccc1)NC(=O)[C@H]1CCCN1C(=O)[C@@H](CCC(N)=O)NC(=O)[C@H](NC(=O)[C@H]1CCCN1C(=O)[C@@H](CCCNC(=N)N)NC(=O)[C@@H](CO)NC(=O)[C@@H](CCC(N)=O)NC(=O)[C@@H](CC(=O)O)NC(=O)[C@H](N)[C@H](C)O)C(C)C)C(=O)N[C@H](CC(N)=O)C(=O)N[C@H](CC(C)C)C(=O)N[C@@H](C(=O)N[C@@H](C(=O)N1CCC[C@@H]1C(=O)N[C@H](CCCNC(=N)N)C(=O)N[C@H](CCCCN)C(=O)N1CCC[C@@H]1C(=O)N[C@H](CCCNC(=N)N)C(N)=O)[C@H](C)O)[C@H](C)O | MAPK9 | kinase activity, inhibitor, radiometric | – | pH 7.5, 30 °C, together with: GST-c-Jun substrate | 1500 ± 109 |
| C[C@]12CC[C@@H]3c4ccc(OS(N)(=O)=O)cc4CC[C@H]3[C@@H]1[C@H](OCCC#N)CC2=O | HSD17B1 | enzyme activity, inhibitor, radiometric | – | – | 4 |
| O=C(O)Cc1cc2c(cc1C(=O)c1ccc(Cl)cc1Cl)OCO2 | Gria1 (Rattus norvegicus, UniProt P19490) | ion current, patch clamp | – | pH 7.4 | 4.15 |
| O=C(NOCCO)c1cc2snnc2c(F)c1Nc1ccc(I)cc1F | MAP2K1 (Homo sapiens, UniProt Q02750) | enzyme activity, inhibitor | – | – | 0.00107 |
| CCCCCCc1ccc(S(=O)(=O)N2CC2C(=O)N2CCCC2)cc1 (stereo not drawn) | PDIA3 (Homo sapiens, UniProt P30101) | enzyme activity, inhibitor, absorbance | – | pH 7.6 | 112 |
| Oc1ccc(CCC(O)CC(O)CCc2ccc(O)cc2)cc1 (stereo not drawn) | Maoa (Rattus norvegicus, UniProt P21396) | enzyme activity, inhibitor | – | together with: 1 mM serotonin substrate | 400 |
| CC1=C(/C=C/C(C)=C/C=C/C(C)=C/C=O)C(C)(C)CCC1 | CNGA1 (Bos taurus, UniProt Q00194) | cGMP-activated current, inhibitor, inside-out patch clamp | – | +100 mV, together with: cGMP 10 to 15 µM (~7.4% activation) | 0.02 |
| O=C1CCc2ccc(NS(=O)(=O)c3cccc(Oc4ccccc4)c3)cc2N1 | Cytosolic phospholipase A2 (Mus musculus, UniProt P47713) | arachidonic acid release | BV-2 | together with: A23187 | 0.00088 |
| CC[C@H](C)[C@H](NC(=O)[C@H](CC(C)C)NC(=O)[C@H](CCCNC(=N)N)NC(=O)c1ccc(CN2CCNCC2)c(O)c1)C(=O)N[C@@H](Cc1ccccc1)C(N)=O | G1/S-specific cyclin-D1, with CDK4 (Homo sapiens, UniProt P24385) | binding to cyclin groove, inhibitor, fluorescence polarization competition | – | – | 10.4 |
| C[C@H](NC(=O)[C@H](CC(=O)NCC(C)(C)C)NC(=O)C(=O)c1c[nH]c2ccccc12)C(=O)NCc1ccc(F)cc1F | Proteasome subunit beta type-3/PSMB7 | inhibitor | – | – | > 100 |
| N=C(NCCCSCC1OC(n2cnc3c(N)ncnc32)C(O)C1O)NCCCC(N)C(N)=O (stereo not drawn) | N-terminal Xaa-Pro-Lys N-methyltransferase 1 | enzyme activity, inhibitor, fluorescence | – | – | > 100 |
| COc1cc2nccc(Oc3ccc(NC(=O)NC4CC4)c(Cl)c3)c2cc1C(N)=O | FLT4 (Homo sapiens, UniProt P35916) | enzyme activity, inhibitor | – | – | 0.0015 |
| CC(=O)N[C@@H](Cc1c[nH]c2ccccc12)C(=O)N[C@H]1CSSC[C@@H](C(=O)N[C@@H](Cc2c[nH]c3ccccc23)C(N)=O)NC(=O)[C@H](CCCNC(=N)N)NC(=O)[C@H](Cc2c[nH]cn2)NC(=O)[C@H](C)NC(=O)CNC(=O)[C@H](Cc2c[nH]c3ccccc23)NC(=O)[C@H](CC(=O)O)NC(=O)[C@H](CCC(N)=O)NC(=O)[C@H](Cc2c[nH]c3ccccc23)NC(=O)[C@H](C(C)C)NC1=O | Complement C3 (Homo sapiens, UniProt P01024) | C3b formation, ELISA | normal human serum | together with: LPS-coated plate | 1.09 |
| Cc1cc(NC2CCN(C)CC2)ccc1-c1cc2c(N3CCC[C@H](C(=O)NCc4ccc(OC(F)(F)F)cc4)C3)ncnc2[nH]1 | LTK (Homo sapiens, UniProt P29376) | enzyme activity, inhibitor, mobility shift | – | – | 0.00042 |
| N[C@@H](Cc1c[nH]c2ccc(OCc3ccccc3-c3ccccc3)cc12)C(=O)O | SLC7A5 | transporter uptake, inhibitor, radiometric | – | – | 8 |
